Measured values of several laboratories.
Numbers after ± are the reported error.
lasR: Transcriptional activator protein LasR (lasR, Pseudomonas aeruginosa, UniProt P25084)
Orco: Orco (Drosophila melanogaster, UniProt Q9VNB5)
HDAC8: Histone deacetylase 8 (HDAC8, Homo sapiens, UniProt Q9BY41)
MAPK8: Mitogen-activated protein kinase 8 (MAPK8, Homo sapiens, UniProt P45983)
OXA-48: Beta-lactamase OXA-48 (OXA-48, Klebsiella pneumoniae, UniProt Q6XEC0)
HDAC6: Protein deacetylase HDAC6 (HDAC6, Homo sapiens, UniProt Q9UBN7)

By UniProt entry, the sequences of proteins in these tests, tags left out. Chains listed by the source or under a name are the forms on record and can include a tag or linker. Residues count along the entry.
UniProt P25084, 1-173 limits assumed: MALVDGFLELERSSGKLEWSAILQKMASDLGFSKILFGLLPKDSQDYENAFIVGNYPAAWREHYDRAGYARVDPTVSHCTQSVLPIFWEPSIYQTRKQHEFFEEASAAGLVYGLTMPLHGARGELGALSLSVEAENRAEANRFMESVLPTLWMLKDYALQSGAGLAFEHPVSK
UniProt P25084, whole entry: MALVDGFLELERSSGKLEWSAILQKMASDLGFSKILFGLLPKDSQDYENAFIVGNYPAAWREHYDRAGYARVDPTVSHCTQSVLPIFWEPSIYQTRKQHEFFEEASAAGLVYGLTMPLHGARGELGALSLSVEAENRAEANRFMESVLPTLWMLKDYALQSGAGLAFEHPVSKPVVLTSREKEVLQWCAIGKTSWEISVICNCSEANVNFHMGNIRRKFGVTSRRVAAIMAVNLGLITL
UniProt Q9VNB5, whole entry: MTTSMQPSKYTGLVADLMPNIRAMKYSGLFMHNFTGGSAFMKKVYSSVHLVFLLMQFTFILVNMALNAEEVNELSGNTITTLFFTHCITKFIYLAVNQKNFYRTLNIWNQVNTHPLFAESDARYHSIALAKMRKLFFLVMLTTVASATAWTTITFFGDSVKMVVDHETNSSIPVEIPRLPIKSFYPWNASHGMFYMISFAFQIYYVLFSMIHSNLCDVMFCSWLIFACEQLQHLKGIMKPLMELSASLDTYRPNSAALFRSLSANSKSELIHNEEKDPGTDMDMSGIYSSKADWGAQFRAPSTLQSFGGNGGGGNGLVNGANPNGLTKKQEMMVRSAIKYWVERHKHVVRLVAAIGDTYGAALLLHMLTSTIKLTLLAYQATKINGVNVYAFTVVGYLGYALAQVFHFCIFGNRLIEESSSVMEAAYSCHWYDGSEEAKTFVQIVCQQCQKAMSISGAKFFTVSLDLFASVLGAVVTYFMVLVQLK
UniProt Q9BY41, whole entry: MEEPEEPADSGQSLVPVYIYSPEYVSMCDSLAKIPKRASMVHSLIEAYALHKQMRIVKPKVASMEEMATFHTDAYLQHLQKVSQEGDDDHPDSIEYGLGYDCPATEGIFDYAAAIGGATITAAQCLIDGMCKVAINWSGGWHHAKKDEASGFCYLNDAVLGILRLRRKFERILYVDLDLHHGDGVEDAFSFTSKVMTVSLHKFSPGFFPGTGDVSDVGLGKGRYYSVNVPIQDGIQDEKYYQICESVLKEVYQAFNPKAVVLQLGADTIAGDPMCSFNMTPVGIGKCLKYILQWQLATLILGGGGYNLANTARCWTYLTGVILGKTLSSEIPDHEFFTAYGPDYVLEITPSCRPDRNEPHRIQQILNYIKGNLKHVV
UniProt P45983, 1-384 isoform 3: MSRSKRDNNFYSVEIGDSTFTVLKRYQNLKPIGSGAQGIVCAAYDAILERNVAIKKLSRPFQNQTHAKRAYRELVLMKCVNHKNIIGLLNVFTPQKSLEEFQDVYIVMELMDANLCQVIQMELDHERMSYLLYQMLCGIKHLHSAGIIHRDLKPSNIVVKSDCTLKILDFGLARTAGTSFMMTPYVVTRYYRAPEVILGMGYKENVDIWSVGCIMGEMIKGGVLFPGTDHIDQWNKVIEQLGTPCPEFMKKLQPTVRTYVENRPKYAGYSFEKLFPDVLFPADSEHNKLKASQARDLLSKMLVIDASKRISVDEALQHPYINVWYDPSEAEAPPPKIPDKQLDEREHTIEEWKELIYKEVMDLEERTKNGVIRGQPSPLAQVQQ
UniProt Q6XEC0, 23-265 limits assumed: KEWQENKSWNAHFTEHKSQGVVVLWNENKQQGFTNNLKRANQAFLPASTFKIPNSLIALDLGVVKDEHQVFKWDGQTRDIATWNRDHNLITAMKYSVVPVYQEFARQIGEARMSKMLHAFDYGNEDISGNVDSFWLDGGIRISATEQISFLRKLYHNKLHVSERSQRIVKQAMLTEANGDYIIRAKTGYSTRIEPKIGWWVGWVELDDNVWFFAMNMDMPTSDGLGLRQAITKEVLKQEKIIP
UniProt Q9UBN7, whole entry: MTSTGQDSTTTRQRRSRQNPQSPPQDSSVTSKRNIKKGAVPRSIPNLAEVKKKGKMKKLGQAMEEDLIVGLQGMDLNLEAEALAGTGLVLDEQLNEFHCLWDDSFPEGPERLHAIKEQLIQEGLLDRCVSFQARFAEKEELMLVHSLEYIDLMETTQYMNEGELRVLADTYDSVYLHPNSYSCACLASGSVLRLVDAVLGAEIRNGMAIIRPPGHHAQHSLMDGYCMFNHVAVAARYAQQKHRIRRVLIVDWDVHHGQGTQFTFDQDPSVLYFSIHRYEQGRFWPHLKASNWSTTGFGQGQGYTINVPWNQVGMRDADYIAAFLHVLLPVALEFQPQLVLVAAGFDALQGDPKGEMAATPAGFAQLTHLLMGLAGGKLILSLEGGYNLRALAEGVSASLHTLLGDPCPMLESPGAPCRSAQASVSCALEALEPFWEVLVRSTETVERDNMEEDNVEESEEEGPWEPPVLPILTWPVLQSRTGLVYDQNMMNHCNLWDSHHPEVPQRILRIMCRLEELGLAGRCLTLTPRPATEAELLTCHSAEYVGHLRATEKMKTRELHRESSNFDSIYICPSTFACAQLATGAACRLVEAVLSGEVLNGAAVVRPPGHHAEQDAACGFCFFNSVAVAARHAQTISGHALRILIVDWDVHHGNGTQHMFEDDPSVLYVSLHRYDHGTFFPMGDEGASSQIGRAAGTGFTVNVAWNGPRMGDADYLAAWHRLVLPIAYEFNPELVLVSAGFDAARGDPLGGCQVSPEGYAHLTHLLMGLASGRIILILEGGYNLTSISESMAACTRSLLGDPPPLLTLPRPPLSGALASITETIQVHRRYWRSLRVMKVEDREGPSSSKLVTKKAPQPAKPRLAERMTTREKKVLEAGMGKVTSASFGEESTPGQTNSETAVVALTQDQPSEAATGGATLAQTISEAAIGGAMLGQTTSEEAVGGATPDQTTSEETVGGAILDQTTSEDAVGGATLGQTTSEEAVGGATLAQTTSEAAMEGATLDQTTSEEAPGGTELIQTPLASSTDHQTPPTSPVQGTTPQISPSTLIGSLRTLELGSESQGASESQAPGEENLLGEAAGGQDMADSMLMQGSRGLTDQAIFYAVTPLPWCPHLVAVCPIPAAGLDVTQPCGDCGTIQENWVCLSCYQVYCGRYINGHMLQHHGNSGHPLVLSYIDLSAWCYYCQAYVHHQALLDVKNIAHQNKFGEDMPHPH
UniProt Q07440, whole entry P104K/C113S, looked up: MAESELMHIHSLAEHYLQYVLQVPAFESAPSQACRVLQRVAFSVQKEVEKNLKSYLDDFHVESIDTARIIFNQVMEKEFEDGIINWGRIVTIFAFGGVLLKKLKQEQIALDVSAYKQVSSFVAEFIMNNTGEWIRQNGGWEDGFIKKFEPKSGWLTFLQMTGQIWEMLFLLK
UniProt P03420, 26-109 partner limits assumed: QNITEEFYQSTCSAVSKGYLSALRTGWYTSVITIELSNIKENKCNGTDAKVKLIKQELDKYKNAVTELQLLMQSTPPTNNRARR
UniProt P03420, 137-513 with tags or gaps I379V/M447V/S155C/S190F/S290C/V207L limits assumed: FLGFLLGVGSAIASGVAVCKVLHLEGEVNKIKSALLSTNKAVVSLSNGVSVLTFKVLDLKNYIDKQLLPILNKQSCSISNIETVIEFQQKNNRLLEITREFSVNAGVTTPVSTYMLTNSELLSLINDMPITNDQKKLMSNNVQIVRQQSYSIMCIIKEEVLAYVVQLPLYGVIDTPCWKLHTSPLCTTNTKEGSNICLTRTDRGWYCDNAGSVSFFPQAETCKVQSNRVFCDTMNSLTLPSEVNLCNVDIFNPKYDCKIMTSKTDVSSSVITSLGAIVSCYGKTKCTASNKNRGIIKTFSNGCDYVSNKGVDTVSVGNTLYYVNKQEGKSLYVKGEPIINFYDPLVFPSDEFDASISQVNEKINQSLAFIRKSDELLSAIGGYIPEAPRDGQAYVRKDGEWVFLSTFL
UniProt P14867, whole entry, looked up: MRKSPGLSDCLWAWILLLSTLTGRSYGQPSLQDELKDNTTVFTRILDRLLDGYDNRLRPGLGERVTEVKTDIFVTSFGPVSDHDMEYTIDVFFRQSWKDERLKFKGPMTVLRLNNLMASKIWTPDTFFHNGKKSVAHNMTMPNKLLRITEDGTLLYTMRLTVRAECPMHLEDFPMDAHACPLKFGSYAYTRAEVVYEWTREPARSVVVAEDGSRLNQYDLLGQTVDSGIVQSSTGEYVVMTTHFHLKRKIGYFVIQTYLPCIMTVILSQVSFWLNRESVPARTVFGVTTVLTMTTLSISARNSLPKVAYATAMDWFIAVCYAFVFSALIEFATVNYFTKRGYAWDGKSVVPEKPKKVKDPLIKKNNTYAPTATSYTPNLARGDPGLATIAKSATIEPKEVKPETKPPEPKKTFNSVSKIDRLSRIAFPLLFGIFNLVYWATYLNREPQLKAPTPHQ
UniProt P32300, whole entry: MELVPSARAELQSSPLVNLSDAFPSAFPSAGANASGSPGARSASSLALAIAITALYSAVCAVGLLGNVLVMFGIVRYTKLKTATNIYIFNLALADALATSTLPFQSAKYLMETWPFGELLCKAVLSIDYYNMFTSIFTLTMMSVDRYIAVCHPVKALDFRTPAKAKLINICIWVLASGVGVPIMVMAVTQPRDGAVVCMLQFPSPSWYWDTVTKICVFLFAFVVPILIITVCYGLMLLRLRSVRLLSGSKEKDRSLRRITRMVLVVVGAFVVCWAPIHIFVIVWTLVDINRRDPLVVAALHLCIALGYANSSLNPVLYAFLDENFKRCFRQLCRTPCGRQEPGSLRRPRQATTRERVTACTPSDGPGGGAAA
UniProt Q13148, whole entry: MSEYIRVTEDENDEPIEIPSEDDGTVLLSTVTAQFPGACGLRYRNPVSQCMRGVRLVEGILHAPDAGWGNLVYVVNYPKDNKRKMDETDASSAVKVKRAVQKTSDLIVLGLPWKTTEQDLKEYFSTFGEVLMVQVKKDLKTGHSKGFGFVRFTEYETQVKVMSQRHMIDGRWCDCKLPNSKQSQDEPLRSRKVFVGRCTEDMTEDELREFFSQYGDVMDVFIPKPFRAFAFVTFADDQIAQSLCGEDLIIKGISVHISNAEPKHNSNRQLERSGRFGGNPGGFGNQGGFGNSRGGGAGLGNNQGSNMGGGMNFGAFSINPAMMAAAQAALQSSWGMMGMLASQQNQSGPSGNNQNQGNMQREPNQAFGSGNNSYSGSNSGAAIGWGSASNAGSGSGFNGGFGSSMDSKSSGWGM
UniProt Q05769, 18-604 limits assumed: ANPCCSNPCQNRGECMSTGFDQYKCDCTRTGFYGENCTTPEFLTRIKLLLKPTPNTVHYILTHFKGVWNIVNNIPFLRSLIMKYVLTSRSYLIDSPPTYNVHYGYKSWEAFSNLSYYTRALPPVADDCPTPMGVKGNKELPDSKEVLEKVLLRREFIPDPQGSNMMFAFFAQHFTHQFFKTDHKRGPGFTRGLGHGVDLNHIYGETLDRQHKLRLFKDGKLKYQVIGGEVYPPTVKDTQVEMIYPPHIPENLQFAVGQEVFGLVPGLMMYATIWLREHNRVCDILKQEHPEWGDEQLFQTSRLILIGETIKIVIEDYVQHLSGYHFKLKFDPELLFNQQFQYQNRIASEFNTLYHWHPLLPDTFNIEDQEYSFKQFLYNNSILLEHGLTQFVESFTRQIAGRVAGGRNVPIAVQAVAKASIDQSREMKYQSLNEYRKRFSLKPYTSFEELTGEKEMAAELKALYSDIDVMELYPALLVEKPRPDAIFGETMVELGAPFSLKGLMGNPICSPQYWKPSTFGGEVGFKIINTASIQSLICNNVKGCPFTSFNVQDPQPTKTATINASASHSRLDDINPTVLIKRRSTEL
UniProt C7C422, 36-270 M154L limits assumed: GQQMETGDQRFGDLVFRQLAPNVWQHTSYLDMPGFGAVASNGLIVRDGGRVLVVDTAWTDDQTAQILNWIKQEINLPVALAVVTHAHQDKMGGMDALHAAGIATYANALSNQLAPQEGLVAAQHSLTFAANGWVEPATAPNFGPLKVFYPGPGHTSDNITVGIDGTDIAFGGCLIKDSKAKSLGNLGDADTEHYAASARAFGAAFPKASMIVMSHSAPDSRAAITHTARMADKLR
UniProt P51452, 28-179 limits assumed: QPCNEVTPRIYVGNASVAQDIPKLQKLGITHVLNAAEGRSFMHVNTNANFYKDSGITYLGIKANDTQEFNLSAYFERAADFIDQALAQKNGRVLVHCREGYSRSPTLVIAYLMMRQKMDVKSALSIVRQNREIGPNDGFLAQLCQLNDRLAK
UniProt Q2TR58, 19-280 limits assumed: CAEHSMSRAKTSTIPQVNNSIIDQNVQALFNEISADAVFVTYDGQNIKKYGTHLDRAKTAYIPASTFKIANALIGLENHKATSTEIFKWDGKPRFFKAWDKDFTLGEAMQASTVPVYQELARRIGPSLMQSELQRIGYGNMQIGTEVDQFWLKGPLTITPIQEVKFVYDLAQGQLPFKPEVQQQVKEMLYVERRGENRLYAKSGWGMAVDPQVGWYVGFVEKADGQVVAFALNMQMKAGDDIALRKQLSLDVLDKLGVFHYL
UniProt P54753, 633-896 limits assumed: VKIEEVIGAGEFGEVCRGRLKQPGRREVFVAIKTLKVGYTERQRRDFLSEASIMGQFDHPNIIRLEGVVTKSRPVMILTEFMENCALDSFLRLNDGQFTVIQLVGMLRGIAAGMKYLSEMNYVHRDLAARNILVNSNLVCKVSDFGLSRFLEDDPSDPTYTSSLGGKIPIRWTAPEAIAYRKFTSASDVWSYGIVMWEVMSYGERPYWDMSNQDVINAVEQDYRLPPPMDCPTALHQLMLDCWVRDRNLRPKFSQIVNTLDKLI

Compound | target or system | assay | system | conditions | scale | quantity | value
Cc1ccc(N=Nc2c(O)ccc3cc(S(=O)(=O)O)ccc23)cc1 | Bcl-2-related protein A1 (Mus musculus, UniProt Q07440, C113S/P104K) | binding, inhibitor, fluorescence polarization competition | – | 100 µM, overnight, 20 °C, added: FITC-Noxa peptide 375 nM | reference: peptide without protein | Noxa peptide bound | 60.6%
O=c1ccn([C@@H]2O[C@H](COP(=O)(O)OP(=O)(O)OP(=O)(O)O)[C@@H](O)[C@]2(F)Br)c(=O)[nH]1 | Genome polyprotein, NS5B polymerase (Hepatitis C virus genotype 6a, UniProt O39927) | polymerase activity, inhibitor | Hepatitis C virus, genotype 6a | – | reference: genotype 1b | IC50 fold change | 0.92
N#Cc1ccccc1C(=O)Oc1c(Br)cc(Br)cc1CNC(=O)c1ccccc1[N+](=O)[O-] | lasR | reporter gene, agonist | Escherichia coli JLD271 lasI-lacZ reporter | – | reference: OdDHL | maximum efficacy | 99%
C#CCCCN1C(=O)[C@@]2(CN2[S@@+]([O-])C(C)(C)C)c2ccccc21 (some centres unmarked) | MYC (Homo sapiens, UniProt P01106) | protein degradation, degrader, HiBiT | HEK293-LgBiT | 50 µM, 24 h | – | protein level reduction | > 50%
CCc1ccc(NC(=O)CSc2nnc(-c3cccnc3)n2C2CC2)cc1 | Orco | calcium mobilization, agonist | HEK293 expressing Drosophila Orco | – | reference: VUAA1 | efficacy | 171%
CC(=O)NCCCC[C@H](NC(C)=O)C(N)=O | HDAC8 | deacetylation, substrate | – | 25 °C, added: 150 nM enzyme | – | kcat | 0.011 ± 0.003 s⁻¹
N=C(N)NCCC[C@H](NC(=O)c1ccccc1)C(=O)N[C@@H](CCCCN)C(=O)N[C@@H](C(N)=O)c1ccc(OCc2ccccc2)cc1 | Genome polyprotein, NS2B-NS3 protease (dengue virus type 2, UniProt P29990) | reporter gene | HeLa DENV2 protease reporter | 12.5 µM | – | inhibition | 42.9 ± 7%
NC[C@@H](NC[C@@H]1CCCN1C[C@@H](CO)NC[C@@H](NCCc1ccc(-c2ccccc2)cc1)c1ccccc1)c1ccccc1 | Escherichia coli | bacterial growth | – | 16 µM, fold shift of IC90, added: amikacin | – | potentiation of amikacin | 1 fold
CC1(C)SCN(C(=O)[C@@H](O)[C@H](Cc2ccccc2)NC(=O)COc2ccccc2)[C@@H]1C(=O)N[C@H]1c2ccccc2C[C@H]1O | Gag-Pol polyprotein, protease (gag-pol, Human immunodeficiency virus type 1 group M subtype B, UniProt P04585, L521I/L551I/Q495K) | binding, isothermal titration calorimetry | – | pH 5.0, 25 °C | – | association constant (Ka) | 8.5e+07 M⁻¹
COC(=O)[C@@]1(C)C=C(C(=O)Nc2ccc(C)c(C(=O)Nc3ccc(Nc4nccc(-c5cccnc5)n4)cc3)c2)C(=O)CC1 | MAPK8 | kinase activity, inhibitor | – | 8.363e-05 µM, unit not given, added: 10 mM GSH | reference: DMSO | remaining activity | 0.911
O=C(Oc1c(Br)cc(Br)cc1CNC(=O)c1ccccc1[N+](=O)[O-])c1ccc(Cl)cc1 | lasR | thermal stability, differential scanning fluorimetry | – | – | – | melting temperature | 66 °C
C=CCN1CC[C@]23c4c5ccc(O)c4O[C@H]2[C@H](NC(=O)c2ccc(N=[N+]=[N-])c([125I])c2)CC[C@@]3(O)[C@H]1C5 | Oprm1 (Mus musculus, UniProt P42866) | binding | CHO cell membranes | 0 °C | – | slowly dissociating fraction | 83%
CS(=O)(=O)CCCn1c(Cn2c(=O)n(C3CC3)c3ccncc32)nc2cc(Br)ccc21 | Fusion glycoprotein F0, prefusion DS-Cav1 (Human respiratory syncytial virus A, UniProt P03420, I379V/M447V/S155C/S190F/S290C/V207L) | isothermal titration calorimetry | respiratory syncytial virus A2, PBS with 1% DMSO | concentration not given, 25 °C | – | binding enthalpy (ΔH) | -20 kcal/mol
O=C1NC(=O)C2(Cc3ccccc32)N1 (racemic) | GABA-A receptor alpha-1/beta-3, with gamma-2 subunit (GABRA1/GABRB3, Homo sapiens, UniProt P14867+P28472) | – | – | alpha1beta3gamma2 receptor | – | maximal inhibition | 66%
Nc1cc(S(=O)(=O)O)cc2cc(S(=O)(=O)O)cc(O)c12 | OXA-48 | enzyme activity | – | – | – | ligand efficiency | 0.34
CC(=O)NCCCC[C@H](NC(=O)CNC(=O)[C@H](CCCNC(=N)N)NC(C)=O)C(=O)N[C@@H](Cc1c[nH]c2ccccc12)C(N)=O | HDAC6 | deacetylation, substrate | – | 25 °C, added: 10 to 50 nM enzyme | – | kcat/KM | 4300 ± 1800 M⁻¹ s⁻¹
O=C(O)c1ccc(-c2cccc(C(=O)O)c2)cc1 | OXA-48 | enzyme activity | – | – | – | ligand efficiency | 0.44
CCn1c(SCC(=O)Nc2ccc(C(C)C)cc2)nnc1-c1cncs1 | Orco | calcium mobilization, agonist | HEK293 expressing Drosophila Orco | – | reference: VUAA1 | efficacy | 36%
NCCNCCSc1ccccc1 | – | spectrophotometry | – | pH 5.8 | – | pKa | 5.88
N#Cc1cc(C(=O)N[C@@H]2CC[C@@]3(O)[C@H]4Cc5ccc(O)c6c5[C@@]3(CCN4CC3CC3)[C@H]2O6)ccn1 | Oprd1 (Mus musculus, UniProt P32300) | agonist | CHO cell membranes | 5 µM | reference: DPDPE | Emax | 55.7 ± 1.71%
O=C(NCc1cc(Br)cc(Br)c1O)c1ccccc1[N+](=O)[O-] | lasR | reporter gene, agonist | Escherichia coli JLD271 lasI-lacZ reporter | – | reference: OdDHL | maximum efficacy | 65%

Compound | target or system | assay | system | conditions | scale | quantity | value
CC(C)C[C@@H](NC(=O)[C@H](NC(=O)[C@H]1CCCN1)[C@H](C)O)C(=O)N[C@H](Cc1c[nH]cn1)C(=O)N[C@@H](C(=O)N[C@H](Cc1c[nH]cn1)C(=O)N[C@H](CC(N)=O)C(=O)N[C@H](CCCNC(=N)N)C(=O)N[C@H](CCCNC(=N)N)C(=O)N[C@H](CCCNC(=N)N)C(=O)N[C@H](CCCNC(=N)N)C(=O)N[C@H](CCCNC(=N)N)C(N)=O)[C@H](C)O | – | adverse events, phase I single ascending dose | healthy male subjects | 12 mg, grade 1 | – | incidence of abnormal EEG | 16.7%
CC(=O)NCCCC[C@H](NC(C)=O)C(=O)N[C@@H](Cc1c[nH]c2ccccc12)C(N)=O | HDAC6 | deacetylation, substrate | – | 25 °C, added: 10 to 50 nM enzyme | – | kcat/KM | 2500 ± 1000 M⁻¹ s⁻¹
Cc1nc2c[nH]c(/C=C/C=C/c3ccc(N(C)C)cc3)cn-2c1=O | TAR DNA-binding protein 43, oligomeric (TARDBP, Homo sapiens, UniProt Q13148) | oligomer binding | – | 15 µM | reference: probe without protein | signal enhancement | 17.2 ± 3.6 fold
COc1ccc2c(c1)c(CC(=O)NCCCCNC(=O)CCC(=O)OC1c3cc4c(cc3C(c3cc(OC)c(OC)c(OC)c3)C3C(=O)OCC13)OCO4)c(C)n2C(=O)c1ccc(Cl)cc1 (centres unmarked) | Ptgs2 (Mus musculus, UniProt Q05769) | – | – | concentration not given, plateau, high concentration | – | remaining activity | 20%
COC(=O)[C@@H](CS)N1C(=O)c2ccc(N(C)C)cc2C1=O | blaNDM-1 (Klebsiella pneumoniae, UniProt C7C422, M154L) | probe | – | 10 µM, NDM-4 variant, probe:enzyme 1:3, added: ZnSO4 10 µM | reference: probe alone | fluorescence increase | 12 fold
CC(=O)N[C@@H](Cc1c[nH]cn1)C(=O)N[C@H](C(=O)NCC(=O)N[C@@H](Cc1ccccc1)C(=O)N[C@@H](CC(C)C)C(=O)N[C@H](C(=O)N[C@@H](CCC(=O)O)C(=O)N[C@@H](Cc1cc(=O)oc2cc(OP(=O)(O)O)ccc12)C(=O)N[C@H](C(=O)N[C@@H](C)C(=O)N[C@H](C(=O)N[C@@H](CCCNC(=N)N)C(=O)N[C@@H](Cc1c[nH]c2ccccc12)C(N)=O)[C@@H](C)O)C(C)C)[C@@H](C)O)[C@@H](C)O | DUSP3 (Homo sapiens, UniProt P51452) | substrate | – | pH 6, ERK1/2 activation-loop peptide | – | kcat | 0.28 s⁻¹
Cc1ccc(C(=O)Nc2cc(Cl)ccc2C(=O)O)cc1S(=O)(=O)Nc1ccc(Cl)c(Cl)c1 | Replication protein A 70 kDa DNA-binding subunit, N-terminal domain (RPA1, Homo sapiens, UniProt P27694) | binding, fluorescence polarisation competition | – | added: FITC-ATRIP probe | – | ligand efficiency | 0.24
CCn1c(SCC(=O)Nc2ccc(C(C)C)cc2)nnc1-c1cccnc1 | Orco | calcium mobilization, agonist | HEK293 expressing Drosophila Orco | – | reference: VUAA1 | efficacy | 127%
COC(=O)[C@@]1(C)C=C(C(=O)Nc2cc(C(=O)Nc3ccc(Nc4nccc(-c5cccnc5)n4)cc3)ccc2C)C(=O)CC1 | MAPK8 | kinase activity, inhibitor | – | 0.006774 µM, unit not given, added: 10 mM GSH | reference: DMSO | remaining activity | 0.686
CC(CCN[C@H](CN[C@H](CO)CN1CCC[C@H]1CN[C@H](CN)c1ccccc1)c1ccccc1)c1ccccc1 (some centres unmarked) | Klebsiella pneumoniae | bacterial growth | – | compound alone | – | IC90 | > 24 µM
CC(C)[C@H](NC(=O)[C@H](CC(=O)O)NC(=O)[C@H](CCCNC(=N)N)NC(=O)[C@H](CCCNC(=N)N)NC(=O)[C@H](CCCCN)NC(=O)[C@H](CCCNC(=N)N)NC(=O)[C@H](CCCNC(=N)N)NC(=O)[C@H](CO)NC(=O)c1ccccc1N)C(=O)N[C@H](C(=O)N1CCC[C@H]1C(=O)N[C@@H](CCC(N)=O)C(=O)NCCNc1ccc([N+](=O)[O-])cc1[N+](=O)[O-])[C@@H](C)O | Furin (FURIN, Homo sapiens, UniProt P09958) | substrate | – | pH 7 | – | Km | 0.15 µM
COc1ccc(S(=O)(=O)N2CCCN(CC(=O)Nc3ccccc3OC)CC2)cc1 | GRM4 (Homo sapiens, UniProt Q14833) | calcium mobilization, positive allosteric modulator | CHO cells with Gqi5 | added: glutamate | reference: PHCCC maximal response | maximal response | 63.9%
C[C@H](CS)C(=O)N[C@@H](Cc1c[nH]c2ccccc12)C(=O)O | Escherichia coli | – | IMP-1 producing | 50 µM, added: meropenem | – | MIC of meropenem | 32 µg/mL
CCCCCCCC(=O)Oc1c(Br)cc(Br)cc1CNC(=O)c1ccccc1[N+](=O)[O-] | lasR | thermal stability, differential scanning fluorimetry | – | – | – | melting temperature | 65.4 °C
O=C(Cc1cccs1)NC(B(O)O)c1cccc(C(=O)O)c1 (centres unmarked) | ADC-7 beta-lactamase (Acinetobacter baumannii, UniProt Q6DRA1) | ESI-MS intact protein | – | 15 min, added: enzyme 14 µM | – | adduct mass | 40600 Da
CC(=O)NCCCC[C@H](NC(=O)CNC(=O)[C@H](CCCNC(=N)N)NC(C)=O)C(N)=O | HDAC8 | deacetylation, substrate | – | 25 °C, added: 150 nM enzyme | – | kcat/KM | 4.4 ± 0.4 M⁻¹ s⁻¹
O=S(=O)(O)c1ccc2cc(S(=O)(=O)O)ccc2c1 | Beta-lactamase OXA-58 (OXA-58, Acinetobacter baumannii, UniProt Q2TR58) | enzyme activity, inhibitor | – | – | – | ligand efficiency | 0.3
COc1ccc(C(=O)Oc2c(Br)cc(Br)cc2CNC(=O)c2ccccc2[N+](=O)[O-])cc1 | lasR | thermal stability, differential scanning fluorimetry | – | – | – | melting temperature | 63.7 °C
COc1ccc(CN[C@@H]2CO[C@H](C(c3ccccc3)c3ccccc3)C[C@H]2O)cc1 | DRD2 (Homo sapiens, UniProt P14416) | radioligand binding | – | 10 µM, added: [3H]N-methylspiperone | – | inhibition | 3.2%
O=C(CCl)c1ccc2c(Nc3ccccc3)ncnc2c1 | EPHB3 (Homo sapiens, UniProt P54753) | ESI-MS | – | covalent adduct | – | protein mass increase | 259 Da

Repeated from above:
Compound | target or system | assay | system | conditions | scale | quantity | value
COC(=O)[C@@]1(C)C=C(C(=O)Nc2cc(C(=O)Nc3ccc(Nc4nccc(-c5cccnc5)n4)cc3)ccc2C)C(=O)CC1 | MAPK8 | kinase activity, inhibitor | – | 0.006774 µM, unit not given, added: 10 mM GSH | reference: DMSO | remaining activity | 0.686
CC(CCN[C@H](CN[C@H](CO)CN1CCC[C@H]1CN[C@H](CN)c1ccccc1)c1ccccc1)c1ccccc1 (some centres unmarked) | Klebsiella pneumoniae | bacterial growth | – | compound alone | – | IC90 | > 24 µM
CC(C)[C@H](NC(=O)[C@H](CC(=O)O)NC(=O)[C@H](CCCNC(=N)N)NC(=O)[C@H](CCCNC(=N)N)NC(=O)[C@H](CCCCN)NC(=O)[C@H](CCCNC(=N)N)NC(=O)[C@H](CCCNC(=N)N)NC(=O)[C@H](CO)NC(=O)c1ccccc1N)C(=O)N[C@H](C(=O)N1CCC[C@H]1C(=O)N[C@@H](CCC(N)=O)C(=O)NCCNc1ccc([N+](=O)[O-])cc1[N+](=O)[O-])[C@@H](C)O | Furin (FURIN, Homo sapiens, UniProt P09958) | substrate | – | pH 7 | – | Km | 0.15 µM
COc1ccc(S(=O)(=O)N2CCCN(CC(=O)Nc3ccccc3OC)CC2)cc1 | GRM4 (Homo sapiens, UniProt Q14833) | calcium mobilization, positive allosteric modulator | CHO cells with Gqi5 | added: glutamate | reference: PHCCC maximal response | maximal response | 63.9%
C[C@H](CS)C(=O)N[C@@H](Cc1c[nH]c2ccccc12)C(=O)O | Escherichia coli | – | IMP-1 producing | 50 µM, added: meropenem | – | MIC of meropenem | 32 µg/mL
